Results of several laboratories.
Each numbered part is a random draw from the data of one study; scales do not carry over between parts.

Block 1
Target: Sal-like protein 4, full length isoform A (SALL4, Homo sapiens, UniProt Q9UJQ4, residues 1-1053)
Chain of UniProt Q9UJQ4 (whole entry, looked up): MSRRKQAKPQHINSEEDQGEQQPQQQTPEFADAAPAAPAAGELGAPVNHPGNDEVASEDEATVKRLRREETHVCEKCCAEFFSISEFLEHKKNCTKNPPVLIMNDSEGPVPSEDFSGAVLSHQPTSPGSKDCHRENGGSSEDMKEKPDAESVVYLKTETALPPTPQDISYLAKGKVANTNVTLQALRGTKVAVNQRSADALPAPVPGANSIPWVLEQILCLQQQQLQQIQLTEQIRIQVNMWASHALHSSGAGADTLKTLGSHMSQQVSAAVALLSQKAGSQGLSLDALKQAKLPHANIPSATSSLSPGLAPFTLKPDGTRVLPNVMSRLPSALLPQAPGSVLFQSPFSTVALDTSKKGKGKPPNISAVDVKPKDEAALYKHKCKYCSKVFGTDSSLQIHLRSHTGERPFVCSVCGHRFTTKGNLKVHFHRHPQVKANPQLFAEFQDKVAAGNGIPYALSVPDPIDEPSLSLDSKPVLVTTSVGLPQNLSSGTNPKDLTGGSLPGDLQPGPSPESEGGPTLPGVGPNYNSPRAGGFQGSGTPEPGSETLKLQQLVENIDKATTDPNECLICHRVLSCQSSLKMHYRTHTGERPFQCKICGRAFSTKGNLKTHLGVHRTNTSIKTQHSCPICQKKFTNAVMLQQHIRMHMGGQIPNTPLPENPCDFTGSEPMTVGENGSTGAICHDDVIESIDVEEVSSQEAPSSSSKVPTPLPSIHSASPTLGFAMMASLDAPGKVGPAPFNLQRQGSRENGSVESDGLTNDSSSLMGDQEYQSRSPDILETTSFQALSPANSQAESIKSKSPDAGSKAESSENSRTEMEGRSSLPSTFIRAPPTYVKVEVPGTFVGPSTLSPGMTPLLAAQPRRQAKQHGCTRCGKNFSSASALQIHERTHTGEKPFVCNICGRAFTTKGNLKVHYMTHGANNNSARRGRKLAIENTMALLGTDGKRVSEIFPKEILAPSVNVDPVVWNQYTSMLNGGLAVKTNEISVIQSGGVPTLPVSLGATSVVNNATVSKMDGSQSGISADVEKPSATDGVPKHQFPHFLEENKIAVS
Technique: universal PBM
Molecule type: double-stranded DNA, one strand shown
Medium: in vitro
Tested at: 600 nM
Setting: 8-mer, flanks averaged, mean of replicates
Reading: higher = stronger binding
| Strand | E-score |
| --- | --- |
| ATCAACGG | 0.0551 |
| TTTACAAA | 0.296 |
| ATGCCGAC | -0.118 |
| CCGGCGTA | -0.297 |
| CAGACGGA | -0.153 |
| CATACTGC | -0.0626 |
| TTCAAAAA | 0.268 |
| GGCGCCAA | -0.167 |
| AATCCATC | 0.0815 |
| AGCACGGG | -0.262 |
| GCGCCCAA | -0.196 |
| CCAAGAGG | -0.226 |
| CCGAGGCA | -0.209 |
| ACGATAGT | 0.179 |
| TCCCGTAA | 0.0809 |
| AGCACAGA | 0.154 |
| TGCCCACA | -0.288 |
| AGGCCGCC | -0.36 |
| CTAATGGA | 0.0825 |
| AACATTGC | 0.0611 |
| CCCGGAAG | -0.274 |
| CGTTATTA | 0.363 |
| ATCCAACA | 0.111 |
| AGATACCG | 0.00707 |
| CTTTAGTA | 0.0218 |

Block 2
Target: Ras GTPase-activating protein-binding protein 1, C-terminal RGG region (G3BP1, Homo sapiens, UniProt Q13283)
Chain of UniProt Q13283 (whole entry, looked up): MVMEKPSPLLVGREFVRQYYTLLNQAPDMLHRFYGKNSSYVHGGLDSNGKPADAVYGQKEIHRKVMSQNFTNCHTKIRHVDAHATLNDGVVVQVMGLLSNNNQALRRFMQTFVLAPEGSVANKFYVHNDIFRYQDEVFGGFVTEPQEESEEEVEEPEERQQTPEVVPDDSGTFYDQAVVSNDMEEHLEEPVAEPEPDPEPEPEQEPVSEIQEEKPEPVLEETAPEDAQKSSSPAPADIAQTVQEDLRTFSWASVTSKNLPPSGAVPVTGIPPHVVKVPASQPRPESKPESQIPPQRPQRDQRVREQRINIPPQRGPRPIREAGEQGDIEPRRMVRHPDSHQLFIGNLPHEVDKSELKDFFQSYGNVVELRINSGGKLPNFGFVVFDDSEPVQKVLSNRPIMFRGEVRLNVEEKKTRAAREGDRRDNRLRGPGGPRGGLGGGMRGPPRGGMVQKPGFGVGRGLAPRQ
Technique: RNA Bind-n-Seq
Molecule type: RNA
Medium: in vitro
Tested at: 1 µM
Setting: whole 134-nt RNA, ends assumed
Added: 150 mM KCl
Relative to: input library
Reading: higher = stronger binding
Shared flanks, not repeated: GGGAGUUCUACAGUCCGACGAUC … UGGAAUUCUCGGGUGUCAAGG
| Strand | log2 enrichment |
| --- | --- |
| UCAAGUCCUGUGCUACACAUCGUAUGUACCGAAUCGGGAAAAAGGGAGGGUGGGAAAGUAUUAUGUUACGCCGUUCGGAUCUGCACUUCC | 1.52 |
| UCCUCAAGUCCUGUGCUACACAUCGUAUGUACCGAAUCGGAGGAGGAAAGGAAAGUAUUAUGUUACGCCGUUCGGAUCUGCACUUCCAGC | -1.5 |
| CAAGUCCUGUGCUACACAUCGUAUGUACCGAAUCGGGUGGGUUUGGGAAAAAGGGAAAGUAUUAUGUUACGCCGUUCGGAUCUGCACUUC | 1.44 |
| GUCCUGUGCUACACAUCGUAUGUACCGAAUCGGGUUUUUUUGGGAAAGGGUUUUUGGGAAAGUAUUAUGUUACGCCGUUCGGAUCUGCAC | -0.0496 |
| UUGGAAGAGACCAGUGAAAUUCGAUCUGACUUGGAGCAGUUAGACCACGAGGUUAAGGAGGCUCAGACACUGUGCGAUGAACUCUCAGUG | 0.419 |
| CUCAAGUCCUGUGCUACACAUCGUAUGUACCGAAUCGGCCGGGCCGGGGCCGGAAAGUAUUAUGUUACGCCGUUCGGAUCUGCACUUCCA | -0.838 |
| ACCAUGCAGGUGGGCAUCUUUGGGAAGUGGUGCAAGGGGGGGAUAGGGAGGGGGGUAACACUUUGGGAACAGGUGGUCCCAGGUCGUUUC | -1.32 |
| UAACUUUAGAGAAGGAUCUGAUGGAUAUGGCAGUGGACGUGGAUUUGGGGAUGGCUAUAAUGGGUAUGGAGGAGGACCUGGAGGUGGCAA | -1.54 |
| CAAGUCCUGUGCUACACAUCGUAUGUACCGAAUCGGAGGAAAAAGGUUUUUUUGGAAAGUAUUAUGUUACGCCGUUCGGAUCUGCACUUC | -1.82 |

Block 3
Target: PABPC1L2, full length, GST fusion (mouse, UniProt A0ABA7IW68)
Technique: RNAcompete
Molecule type: RNA
Medium: in vitro
Tested at: 20 nM
Setting: 7-mer, probes averaged, single round
Relative to: mean of 7-mers
Reading: higher = stronger binding
Construct (chain): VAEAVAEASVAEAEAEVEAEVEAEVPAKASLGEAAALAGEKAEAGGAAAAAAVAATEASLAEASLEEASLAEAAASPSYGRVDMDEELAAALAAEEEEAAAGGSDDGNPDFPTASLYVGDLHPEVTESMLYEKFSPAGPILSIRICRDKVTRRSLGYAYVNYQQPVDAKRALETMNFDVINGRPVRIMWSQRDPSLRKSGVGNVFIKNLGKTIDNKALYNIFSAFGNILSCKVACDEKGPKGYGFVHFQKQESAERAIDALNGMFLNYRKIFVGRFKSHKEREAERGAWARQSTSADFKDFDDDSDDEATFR
| Strand | 7-mer Z-score |
| --- | --- |
| AUACUGA | -0.117 |
| UCACCUG | -0.34 |
| GGGAUAG | 0.184 |
| CCUCUUA | -0.238 |
| UGAAGGC | 0.0388 |
| UUCCCGU | -0.505 |
| UUACAGA | 0.0587 |
| UGCCAUC | -0.142 |
| GGCAGAG | 0.329 |
| UGUCUUC | -0.316 |
| AUUCACC | -0.344 |
| AUUCGAG | -0.0863 |
| GGAUCCA | 0.0497 |
| CGUGCCG | -0.151 |
| UAUUAUA | -0.151 |
| GUACUUU | -0.295 |
| GACUCAG | -0.141 |
| CCCCAAC | -0.318 |
| AGGAUGU | -0.0246 |
| CAGCCGU | -0.222 |
| UGUAGAA | 0.224 |
| UUUACUA | -0.0772 |
| UAGGACU | 0.0642 |
| CCACAGC | -0.122 |
| AGAAAUU | 1.25 |

Block 4
Target: UBE2G1 UBC core domain (UniProt P62253)
Technique: yeast two-hybrid
Medium: yeast
Setting: mostly zero background
Relative to: not given
Reading: higher = stronger interaction
B1: SH3RF1 RING domain (UniProt Q7Z6J0); chain DESALLDLLECPVCLERLDASAKVLPCQHTFCKRCLLGIVGSRNELRCPECRTLVGSGVEEL
B2: RBCK1 RING domain (UniProt Q9BYM8); chain SLVLNTEPAECPVCYSVLAPGEAVVLRECLHTFCRECLQGTIRNSQEAEVSCPFIDNTYSCSGKLLEREIK
B3: MDM4 RING domain (UniProt O15151); chain MEDCQNLLKPCSLCEKRPRDGNIIHGRTGHLVTCFHCARRLKKAGASCPICKKEIQLVIKVF
Construct (chain): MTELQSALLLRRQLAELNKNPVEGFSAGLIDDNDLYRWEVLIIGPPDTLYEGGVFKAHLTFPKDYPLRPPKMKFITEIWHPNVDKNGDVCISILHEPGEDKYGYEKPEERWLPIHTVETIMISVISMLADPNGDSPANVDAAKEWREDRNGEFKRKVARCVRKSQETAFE
| Sequence | lacZ reporter activity |
| --- | --- |
| B1 (SH3RF1 RING domain) | 0 |
| PEDRESLKSACVVCLSSFKSCVFLECGHVCSCTECYRALPEPKKCPICRQAITRVIPLY (MUL1 RING domain (UniProt Q969V5)) | 0 |
| B2 (RBCK1 RING domain) | 0 |
| B3 (MDM4 RING domain) | 0 |
| NLSELTPYILCSICKGYLIDATTITECLHTFCKSCIVRHFYYSNRCPKCNIVVHQTQPLY (PCGF6 RING domain (UniProt Q9BYE7)) | 0 |
| AVPSGLEENLCKICMDSPIDCVLLECGHMVTCTKCGKRMNECPICRQYVIRAVHVF (RFFL RING domain (UniProt Q8WZ73)) | 0 |

Block 5
Target: Histone acetyltransferase KAT6A, both winged helices, GST fusion (KAT6A, Homo sapiens, UniProt Q92794, residues 1-181)
Technique: protein binding microarray
Molecule type: double-stranded DNA, one strand shown
Medium: in vitro
Tested at: not given
Setting: 8-mer, flanks averaged, mean of 2 arrays, mostly near background
Relative to: not given
Reading: higher = stronger binding
Target sequence (chain): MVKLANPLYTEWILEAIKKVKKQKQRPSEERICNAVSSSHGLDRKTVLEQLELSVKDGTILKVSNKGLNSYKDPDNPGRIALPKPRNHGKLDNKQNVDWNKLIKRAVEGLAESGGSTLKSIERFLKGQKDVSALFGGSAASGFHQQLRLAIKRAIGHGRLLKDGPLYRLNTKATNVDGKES
| Strand | E-score |
| --- | --- |
| GCAGGTCC | -0.0261 |
| CAATTTCA | -0.0762 |
| CCTCGTCG | -0.0166 |
| ACCGAAGT | -0.043 |
| AGAGCGGC | 0.243 |
| TTTCCAAA | -0.111 |
| CCGTGGTA | 0.0697 |
| CCTGTTGC | -0.0752 |
| ATCGCGTC | 0.221 |
| CACACCCC | -0.162 |
| AACTTAGG | -0.158 |
| ATCTACAC | -0.119 |
| AAGTAAGA | -0.0261 |
| CTATGCCA | -0.199 |
| CGAGAGTC | -0.128 |
| CGTGGTCA | -0.119 |
| ATATATTG | -0.127 |
| AACGTGAC | 0.0134 |
| CAAATTAA | -0.138 |
| CTCTTGCC | -0.141 |
| CATGCGAC | 0.152 |
| GTAAACAA | -0.0383 |
| AATGGATA | -0.142 |
| CCGAACGC | 0.215 |
| CTTGGGAC | -0.128 |
